Assay results pooled from the literature.
“And” joins repeats or separate records; there may be more than shown. ± marks the error that the study gave.

For Cc1ccc(-n2cc(CSc3nc4ccccc4n3Cc3cn(-c4ccc(C)cc4)nn3)nn2)cc1, the viability was 93.9% (HEK293; MTT; 3.91 ppm).
The viability of C/C=C(/C)C(=O)OC[C@H]1[C@@H](Cc2ccc(OC)c(OC)c2)CO[C@@H]1c1ccc(OC)c(OC)c1 is reported as 87 ± 3% (HEK293/NF-κB-luc; CellTracker Green CMFDA; 20 µM, 4.5 h, serum-free medium; reference: stimulated untreated cells).
With COc1ccc(CSC2C3=C(CCCC3=O)Oc3ccc(Br)cc32)cc1 (stereo not shown) the viability was 105% (3T3-L1 mature adipocytes; MTT; IC20, 6 days, lipolysis conditions; reference: untreated).
With N=C(N)NCCC[C@@H]1NC(=O)[C@H](CCCNC(=N)N)NC(=O)[C@H](CCCNC(=N)N)NC(=O)[C@H](Cc2ccc3ccccc3c2)NC(=O)[C@H](Cc2ccc3ccccc3c2)NC(=O)[C@H](Cc2ccc3ccccc3c2)NC(=O)[C@H](CCCNC(=N)N)NC1=O the viability was 30 to 35% (MRC5; cell growth or viability, MTS; 150 µg/mL, 24 h).
For O=CCNCCOn1c(=O)n(OCCNCCO)c(=O)n(OCCNCCOn2c(=O)n(OCCNCCO)c(=O)n(OCCNCCO)c2=O)c1=O, the viability was 60.5% (HUVEC; cell growth or viability, MTT; 50 µg/mL, 24 h).
With COc1cc(/C=C/C=C2\SC(=S)NC2=O)ccc1O the viability was 1.01 and 1.05 (HEK-293T; CellTiter-Glo; 5 µM, 24 h, unit not given; reference: untreated).
With CN1CCCNC(=O)c2cccc(c2)C(=O)NCCCN(C)CCCNc2cccc3c2C(=O)c2cccc(c2C3=O)NCCC1 the viability was 4.11% (Ca9-22; CCK-8; 15 µM, 48 h; reference: untreated).
COc1cc(N2CCN(C(=O)C3CCCN3)CC2)ccc1Nc1ncc(Cl)c(Nc2ccccc2P(C)(C)=O)n1 (stereo not shown) gave a viability of 24% and 26% (NCI-H3122; cell growth or viability, CCK-8; 0.1 µM, 48 h).
N=C(N)NCCC[C@@H]1NC(=O)[C@H](CCCNC(=N)N)NC(=O)[C@@H](CCCNC(=N)N)NC(=O)[C@@H](CCCNC(=N)N)NC(=O)[C@@H](Cc2ccc3ccccc3c2)NC(=O)[C@H](Cc2c[nH]c3ccccc23)NC(=O)[C@@H](Cc2ccc3ccccc3c2)NC1=O gave a viability of 61 to 65% (MRC5; cell growth or viability, MTS; 200 µg/mL, 24 h).
The hepatic clearance of O=C(c1ccc([C@H]2[C@@H](F)[C@@H](F)C[C@@H](F)[C@H]2F)cc1)N1CCC(F)CC1 is reported as 3.9 mL/min/kg (liver microsome stability; human liver microsomes; 1 µM, without NADPH).
CN1CCCN(c2cnc3c(cc(C(=O)NCc4ccc(Cl)cc4)c(=O)n3CC(=O)N3CC(C)(F)C3)n2)C1=O gave a viability of 100% (MRC5; cell growth or viability, CCK-8; 40 µM).
For COc1ccc(C[C@H]2CO[C@H](c3ccc(OC)c(OC)c3)[C@H]2COC(=O)C2CCCCCC2)cc1OC, the viability was 87 ± 4% (HEK293/NF-κB-luc; CellTracker Green CMFDA; 20 µM, 4.5 h, serum-free medium; reference: stimulated untreated cells).
For N=C(N)NCCC[C@@H]1NC(=O)[C@@H](CCCNC(=N)N)NC(=O)[C@H](CCCNC(=N)N)NC(=O)[C@@H](C(c2ccccc2)c2ccccc2)NC(=O)[C@@H](C(c2ccccc2)c2ccccc2)NC(=O)[C@@H](C(c2ccccc2)c2ccccc2)NC(=O)[C@@H](CCCNC(=N)N)NC1=O, the viability was 61 to 70% (MRC5; cell growth or viability, MTS; 150 µg/mL, 24 h).
The viability of COc1ccc(C[C@H]2CO[C@H](c3ccc(OC)c(OC)c3)[C@H]2COC(=O)C(C)(C)C)cc1OC is reported as 84 ± 7% (HEK293/NF-κB-luc; CellTracker Green CMFDA; 20 µM, 4.5 h, serum-free medium; reference: stimulated untreated cells).
For N=C(N)NCCC[C@@H]1NC(=O)[C@H](CCCNC(=N)N)NC(=O)[C@@H](CCCNC(=N)N)NC(=O)[C@@H](CCCNC(=N)N)NC(=O)[C@@H](C(c2ccccc2)c2ccccc2)NC(=O)[C@H](Cc2c[nH]c3ccccc23)NC(=O)[C@@H](C(c2ccccc2)c2ccccc2)NC1=O, the viability was 76 to 81% (MRC5; cell growth or viability, MTS; 200 µg/mL, 24 h).
The hepatic clearance of Nc1ncc(-c2ccc([C@H]3[C@@H](F)[C@@H](F)C[C@@H](F)[C@H]3F)cc2)cn1 is reported as 3.9 mL/min/kg (liver microsome stability; human liver microsomes; 1 µM, without NADPH).
